Measurements of several laboratories.
Each line is one published result; not all experiments were run side by side. Several values in a cell are separate wells, animals, samples, runs or records.
Target: Macrophage colony-stimulating factor 1 receptor (CSF1R, Homo sapiens, UniProt P07333)

SMILES | assay | conditions | scale | endpoint | value
O=c1c(-c2ccc(Cl)c(CN3CCOCC3)c2)coc2cc(O)ccc12 | enzyme activity, inhibitor | 1 µM |  | remaining activity | 93%
C[C@H]1CN(C(=O)c2cn(-c3ccnc(N)n3)c3cc(C#CC4(O)CCCCC4)ccc23)CCN1 | enzyme activity, inhibitor, FRET | 1 µM |  | inhibition | -3%
C=CC(=O)N1Cc2nc(-c3cc(-c4cc(Cl)cnc4Cl)c(F)cc3F)n(-c3ccncn3)c2C1 | cell-free assay | 1 µM |  | inhibition | 16%
NC(=O)C[C@H]1CCc2sc3ncnc(O[C@H]4CC[C@H](N5CCOCC5)CC4)c3c21 | enzyme activity, inhibitor | 10 µM |  | inhibition | 1%
Cc1cccc(O[C@H]2CCC[C@@H](C(C)CNCc3ccncc3)C2)c1 (relative stereo) | cell-free assay | 10 µM |  | inhibition | 0%
COCC12C(=O)NC3C4(C(OC)CC1O)C1CC5(O)C(OC)C(O)C(OC(C)=O)(C1C5OC(=O)c1ccccc1)C3(O)C(OC)C24 (stereo not drawn) | kinase activity, inhibitor, ProQinase kinase profiling | 25 µM | reference: control | remaining activity | 112% and 116%
CN1CCN(c2ccc(Nc3ncc(Cl)c(Nc4ccccc4P(C)(C)=O)n3)cc2Br)CC1 | enzyme activity, inhibitor | 0.1 µM |  | inhibition | 15.2%
Cc1[nH]nc2c1N=C(c1ccccc1Cl)c1cnc(N3CCOCC3)cc1N2 | enzyme activity, inhibitor | 0.5 µM |  | inhibition | > 99%
COc1ccc(NC(=O)Nc2ccc3c(c2)C(=O)N(C(C)CO)CC(C)C(CN(C)Cc2ccc4c(c2)OCO4)O3)cc1 (stereo not drawn) | kinase activity, KinaseProfiler | 0.03 µM, species human | reference: control | remaining activity | 95%
C=C1CCCCCCCCCC(CO)C1=O (stereo not drawn) | cell-free assay | 10 µM |  | remaining signal | 94%
CN1CCN(Cc2ccc(-c3ccc(CO[C@H]4CCC[C@@H]4NC(=O)c4cc(-c5cnn(C)c5)cnc4N)cc3)cc2)CC1 | enzyme activity, inhibitor | 0.1 µM |  | inhibition | 4%
C=CC(=O)Nc1cccc(-c2cnc3[nH]cc(C(=O)NC(C)(C)C)c3n2)c1 | enzyme activity, inhibitor | 0.1 µM |  | inhibition | 37%

For quick reference, copied from above:
SMILES | assay | conditions | scale | endpoint | value
C[C@H]1CN(C(=O)c2cn(-c3ccnc(N)n3)c3cc(C#CC4(O)CCCCC4)ccc23)CCN1 | enzyme activity, inhibitor, FRET | 1 µM |  | inhibition | -3%
